Measured values of several laboratories.
Compare with care: the assays were run in different laboratories. ± gives the spread as reported. Values after ≈ are worked out from the molar mass of the structure shown.

Compound	target or system	test	test system	conditions	scale	quantity	result
CCCCCCCCCCCCC(=O)O.O=C1CCCC2C3CCCN4CCCC(CN12)C34 (centres unmarked)		electrical conductivity	water	293.15 K, critical micelle concentration		standard Gibbs energy of micellization	-29.4 kJ/mol
CCN(CC)CCOc1ccc(-c2nnn(Cc3ccc(OC)cc3)c2N)cc1			Beagle dog	oral, 4 weeks daily		NOAEL	80 mg/kg
C[C@@H]1CC[C@H]2[C@@H](C)CO[C@@H]3O[C@@]4(C)CC[C@@H]1[C@]32OO4		refers to: compound	rat, plasma	50.0 ng/mL spiked, 30 days, long-term storage at -80 °C		stability accuracy	97.4%
CC[C@@H]1C[C@]1(NC(=O)[C@@H]1C[C@@]2(CN1C(=O)[C@@H](NC(=O)[C@@H](NC(=O)[C@@H]1CCCCN1C(C)C)C1CCCCC1)C(C)(C)C)C(C)(C)C21CCC1)C(=O)NS(=O)(=O)N1CCCC1			human	oral, 100 mg, fed	relative to: fasted	decrease in Cmax	~44%
O=c1oc2c(O)c(O)ccc2c2cc(O)c(O)cc12		potentiometric titration	water, extrapolated from methanol/water	25 °C		pKa1	6.12
N=C(N)NCc1ccc(C(=O)NCCCC[C@H](NC(=O)N[C@@H](CCC(=O)O)C(=O)O)C(=O)O)cc1[211At]			SCID mouse, PC-3 xenografts, blood	2 h		tissue uptake	0.58 ± 0.08 %ID/g
COC(=O)C[C@](O)(CCCC(C)(C)OC(C)=O)C(=O)O[C@@H]1C(OC)=C[C@]23CCCN2CCc2cc4c(cc2[C@H]13)OCO4			CD1 mouse, heart	subcutaneous, 1 mg/kg, 8 h, below quantification limit 1.00 ng/mL		tissue concentration	not detected
CC(C)[C@H](NC(=O)CNC(=O)[C@H](CCC(N)=O)NC(=O)[C@H](C)N)C(=O)O		moderate intensity	human	20 mg/kg, 3 days, thrice daily dosing		subjects with adverse events	16.7%
CCNc1cc2[o+]c3cc(NCC)c(C)cc3c(-c3ccccc3C(=O)OCCOCC[18F])c2cc1C			rat, thyroid/trachea	60 min		tissue uptake	1.05 ± 0.24 %ID/g
CC(=CCC(O)C(C)=Cc1csc(C)n1)CC=CC(C)C(O)C(C)C(=O)C(C)(C)C(O)CC(=O)O (centres unmarked)			human, plasma	intravenous infusion, 42 mg/m2 KOS-1584, 3 h infusion, cycle 1	relative to: metabolite over KOS-1584	AUC ratio	7.39 ± 2.01%
CC[C@H](C)[C@@H]1NC(=O)[C@H](CCCCN)NC(=O)[C@H](CCCCN)NC(=O)[C@H](Cc2ccc(O)cc2)NC(=O)[C@H](CC(C)C)NC(=O)[C@@H]2CCCN2C(=O)[C@H](C)NC(=O)CNC(=O)CNC(=O)[C@H](CO)NC(=O)CNC(=O)CNC(=O)[C@H](CO)NC(=O)[C@H](CCC(=O)O)NC(=O)[C@H](CC(C)C)NC(=O)[C@H](CC(C)C)NC(=O)[C@H](CCCCN)NC(=O)[C@H](CCCNC(=N)N)NC(=O)[C@H]([C@@H](C)CC)NC(=O)[C@H]([C@@H](C)CC)NC(=O)[C@H](CCCCN)NC(=O)[C@H](CCCCN)NC(=O)[C@H](Cc2ccc(O)cc2)NC(=O)[C@H](CC(C)C)NC(=O)[C@@H]2CCCN2C(=O)CNC(=O)CNC(=O)[C@@H](NC(=O)CN)CSSC[C@@H](C(N)=O)NC(=O)[C@H](CC(C)C)NC(=O)[C@H](CCCCN)NC(=O)[C@H](CCCNC(=N)N)NC(=O)[C@H]([C@@H](C)CC)NC1=O		hemolysis	uninfected human erythrocytes	1 h		HC10	28.2 ± 4.1 µM
Cc1cc(-c2ccc3ccccc3c2)nnc1NCCN1CCN(C)CC1			rat	oral, dose not given		AUC(0-last)	1400 ng·h/mL
Cc1cc(Nc2nc(C[C@@]3(C(=O)O)CCN(Cc4cccc(Cl)c4F)[C@H](C)C3)cc(C)c2F)n[nH]1			beagle dog, plasma	oral, 1 mg/kg, single dose		bioavailability	78.8%
CN[C@](C)(C[18F])C(=O)O	DU-145 tumour model		host not given, liver	2 h, tumour-bearing		tracer uptake	3.5 %ID/g
N=C(N)NCCC[C@@H]1NC(=O)[C@H](CCCCNC(=O)CC[C@H](NC(=O)CCOCCOCCOCCOCCNC(=O)CN2CCN(CC(=O)O)CCN(CC(=O)O)CCN(CC(=O)O)CC2)C(=O)NCCCC[C@@H]2NC(=O)[C@@H](Cc3ccccc3)NC(=O)[C@H](CC(=O)O)NC(=O)CNC(=O)[C@H](CCCNC(=N)N)NC2=O)NC(=O)[C@@H](Cc2ccccc2)NC(=O)[C@H](CC(=O)O)NC(=O)CNC1=O [indium-111 labelled]			athymic nude mice, female, U-87 MG glioma xenograft, bone	intravenous, 3 µCi, 72 h		tissue uptake	0.43 ± 0.06 %ID/g
O=c1c2cc(Cl)ccc2sc2c(NCc3ccccc3)nc3ccccc3c12			BALB/c nude mice	i.p., 5 mg/kg		body weight gain	4.32 ± 0.93%

Compound	target or system	test	test system	conditions	scale	quantity	result
O=C(O)[c-]1cccc1.O=C(Oc1ccc(-n2cccc2)cc1)[c-]1cccc1.[Fe+2]		cyclic voltammetry	acetonitrile		relative to: Ag/AgCl	E1/2	964 mV
CC[C@H](C)C(=O)N1CCC(NC(=O)Nc2ccc(OC(F)(F)F)c(F)c2)CC1			human, plasma	oral, 8 mg, single dose, healthy volunteers		Tmax	1.25 h
O=C(O)CCCN1CCN2CCN(CC1)CC(=O)[O][Al]([18F])[O]C(=O)C2			Sprague-Dawley rat, normal, blood	iv, 60 min		blood uptake	1.6 ± 0.3 %ID
COc1ccc(CNc2nc(N3CCC[C@H]3CO)ncc2C(=O)NNC(=O)c2cnc(N3CCC[C@H]3CO)nc2NCc2ccc(OC)c(Cl)c2)cc1Cl	Salmonella typhimurium		TA102	1000 µg/plate, with: rat liver S9		revertant count	172 ± 22
CCN(Cc1ccccc1)C(=O)CCc1nc(CN2CCN(C(=O)Cc3ccc(OC)c(OC)c3)CC2)no1		rotarod fatigue test	mouse, chronic constriction injury	intraperitoneal		TD50	88 ± 1.41 mg/kg
CSCC[C@@H]1NC(=O)[C@@H]2CSSC[C@H](NC(=O)[C@H](CO)NC(=O)[C@H](C)N)C(=O)N[C@@H](CCCNC(=N)N)C(=O)N[C@@H]([C@@H](C)O)C(=O)N3CCC[C@H]3C(=O)N[C@@H](CCCCN)C(=O)N[C@@H](CC(=O)O)C(=O)N[C@H]3CSSC[C@H](NC(=O)[C@H](CCCCN)NC(=O)[C@H](CCCNC(=N)N)NC(=O)[C@H](CC(N)=O)NC1=O)C(=O)N[C@@H](CCCCN)C(=O)N[C@H]1CSSC[C@H](NC(=O)[C@@H]4CCCN4C(=O)[C@H](CC(=O)O)NC(=O)[C@H](C)NC3=O)C(=O)N[C@@H](C)C(=O)N[C@@H](CCCCN)C(=O)N[C@@H](CCC(=O)O)C(=O)N[C@@H]([C@@H](C)O)C(=O)NCC(=O)N[C@@H](CSSC[C@@H](C(N)=O)NC(=O)[C@H](CCCNC(=N)N)NC(=O)[C@H](CC(N)=O)NC1=O)C(=O)N1CCC[C@H]1C(=O)N[C@@H](Cc1ccc(O)cc1)C(=O)NCC(=O)N[C@@H](CCCCN)C(=O)N2			DA rat pristane-induced arthritis, serum	subcutaneous, 0.1 mg/kg once weekly, 21 days		Creatinine	0.2 mg/dL
[2H]C([2H])([2H])C([2H])([2H])C([2H])([2H])OC(C(=O)OC1CCNCC1)(c1ccccc1)c1ccccc1			healthy Japanese male subjects, plasma	oral, 8 mg, day 1, mean		tmax	6 h
CC[C@H](C)[C@H](NC(=O)[C@H](CC(=O)O)NC(=O)[C@H](CO)NC(=O)[C@H](CCC(N)=O)NC(=O)[C@H](C)NC(=O)[C@H](CC(=O)O)NC(=O)[C@H](CCC(=O)O)NC(=O)[C@H](Cc1c[nH]cn1)NC(=O)[C@H](Cc1ccc(O)cc1)NC(=O)[C@H](C)NC(=O)[C@H](CC(=O)O)NC(=O)[C@H](CCC(=O)O)NC(=O)[C@H](Cc1c[nH]cn1)NC(=O)[C@H](Cc1ccc(O)cc1)NC(=O)[C@H](C)NC(=O)[C@H](CC(=O)O)NC(=O)[C@H](CCC(=O)O)NC(=O)[C@H](Cc1c[nH]cn1)NC(=O)[C@H](Cc1ccc(O)cc1)NC(=O)[C@H](C)NC(=O)[C@H](CC(=O)O)NC(=O)[C@H](CCC(=O)O)NC(=O)[C@H](Cc1c[nH]cn1)NC(=O)[C@H](Cc1ccc(O)cc1)NC(=O)[C@H](C)NC(=O)[C@H](CC(=O)O)NC(=O)[C@H](CCC(=O)O)NC(=O)[C@H](Cc1c[nH]cn1)NC(=O)[C@@H](N)Cc1ccc(O)cc1)C(=O)N[C@H](C(=O)N[C@@H](C)C(=O)N[C@@H](Cc1c[nH]cn1)C(=O)N[C@@H](CC(C)C)C(=O)N[C@@H](CC(C)C)C(=O)O)C(C)C			mouse, SN model	dose not given		RDW	26.9 ± 4.5%
CC[C@H](C)[C@H](NC(=O)[C@H](Cc1ccccc1)NC(=O)[C@@H]1CCCN1C(=O)[C@H](CCCCN)NC(=O)[C@H](CCCCN)NC(=O)[C@H](Cc1ccccc1)NC(=O)[C@H](Cc1ccccc1)NC(=O)[C@@H](C)NC(=O)[C@@H](N)Cc1ccc(O)cc1)C(=O)N[C@@H](CC(C)C)C(=O)O			anesthetized rat	intrathecal, 10 nmol/rat, 10 min		minute ventilation	113 ± 14 mL/min
[11CH3]Oc1ccc(C(=O)Nc2cc(-c3ccc(I)cc3)no2)cc1		PET imaging	rhesus monkey, brain	intravenous, 2 min		peak SUV	~2.3
CCCCC[C@@H]1OC(=O)[C@@H](C)N(C)C(=O)[C@H](CCCCC)OC(=O)[C@@H](C)N(C)C(=O)[C@H](CCCCC)OC(=O)[C@@H](C)N(C)C(=O)[C@H](CCCCC)OC(=O)[C@@H](C)N(C)C1=O		PAMPA	lecithin in n-dodecane membrane	500 µM, time not given, pH 7.4, PBS with TPGS and DMSO		recovery	94%
C[C@]12CC[C@H](OCC[18F])C[C@H]1CC[C@@H]1[C@@H]2CC[C@]2(C)[C@@H](c3ccc(=O)oc3)CC[C@]12O		radio-HPLC	PBS	10 h, pH 7.2, room temperature		radiochemical purity	99%
Cc1cc(O)cc(C)c1CC(N)C(=O)NC1CCNc2ccc(CN3CCc4ccccc4C3)cc21 (centres unmarked)		chemical stability	mouse, plasma	30 min		compound remaining	100%
CN(C)C(CNC(=O)Nc1cc(C(F)(F)F)ccc1N1CCOCC1)c1ccncc1 (centres unmarked)			mouse, serum	intraperitoneal, 180 mg/kg single dose		serum AST	539 U/L
CC(C)[C@H](NC(=O)CNC(=O)[C@H](CCC(N)=O)NC(=O)[C@H](C)N)C(=O)O			healthy male volunteers	intravenous, 15 mg/kg/h, 2 h, with: LPS 2 ng/kg		subjects with unrelated AE	25%
CC[C@H](C)[C@H](NC(=O)[C@H](CCC(N)=O)NC(=O)[C@H](CCC(N)=O)NC(=O)[C@@H](NC(=O)[C@H](CO)NC(=O)[C@@H](NC(=O)[C@H](CCCNC(=N)N)NC(=O)[C@H](C)NC(=O)[C@@H](NC(=O)[C@H](CCCNC(=N)N)NC(=O)[C@H](C)NC(=O)[C@H](CCCCN)NC(=O)[C@H](CO)NC(=O)[C@H](C)NC(=O)[C@H](CC(C)C)NC(=O)[C@H](CO)NC(=O)[C@H](C)NC(=O)[C@H](C)NC(=O)[C@H](Cc1ccccc1)NC(=O)[C@H](CCCNC(=N)N)NC(=O)[C@H](Cc1ccc(O)cc1)NC(=O)[C@@H](N)CCSC)C(C)C)[C@@H](C)O)[C@@H](C)O)C(=O)NCC(=O)NCC(=O)N[C@@H](CCCNC(=N)N)C(=O)N[C@@H](CC(C)C)C(=O)N[C@@H](CC(N)=O)C(=O)N[C@@H](Cc1c[nH]c2ccccc12)C(=O)N[C@@H](CO)C(=O)N[C@@H](CCCNC(=N)N)C(=O)N[C@@H](CC(N)=O)C(=O)N[C@@H](Cc1ccc(O)cc1)C(=O)N[C@@H](C)C(=O)N[C@@H](C)C(N)=O			water	0.167 min		thermodynamic solubility	12 mM (≈ 45.8 mg/mL)

Some of these lines once more:
Compound	target or system	test	test system	conditions	scale	quantity	result
O=c1c2cc(Cl)ccc2sc2c(NCc3ccccc3)nc3ccccc3c12			BALB/c nude mice	i.p., 5 mg/kg		body weight gain	4.32 ± 0.93%
O=c1oc2c(O)c(O)ccc2c2cc(O)c(O)cc12		potentiometric titration	water, extrapolated from methanol/water	25 °C		pKa1	6.12
COc1ccc(CNc2nc(N3CCC[C@H]3CO)ncc2C(=O)NNC(=O)c2cnc(N3CCC[C@H]3CO)nc2NCc2ccc(OC)c(Cl)c2)cc1Cl	Salmonella typhimurium		TA102	1000 µg/plate, with: rat liver S9		revertant count	172 ± 22
CN(C)C(CNC(=O)Nc1cc(C(F)(F)F)ccc1N1CCOCC1)c1ccncc1 (centres unmarked)			mouse, serum	intraperitoneal, 180 mg/kg single dose		serum AST	539 U/L
